Results of several laboratories.
Protocols differ between the studies behind these lines. Several values in a cell are separate wells, animals, samples, runs or records. ± marks the error that the study gave.

Structure (SMILES)	test	test system	conditions	scale	half-life
CN(Cc1nc2c(N)nc(N)nc2[nH]c1=O)c1ccc(C(=O)N[C@@H](CCC(=O)O)C(=O)O)cc1	–	human, plasma	oral, 15 mg methotrexate, day 1, alone, arithmetic mean	–	720 min
CCn1c(C(=O)c2cc(C)cc(C#N)c2)c(C(C)C)c(=O)[nH]c1=O	–	healthy humans, plasma	oral, 300 mg once daily, 7 days	–	1690 ± 1160 min
Br.Cc1ccc(Sc2ccccc2N2CCNCC2)c(C)c1	–	healthy humans, plasma	oral	–	3540 to 4140 min
CCCCC1(CCCC)CN(c2ccccc2)c2cc(SC)c(OCC(=O)N[C@@H](C(=O)NCC(=O)O)c3ccccc3)cc2S(=O)(=O)C1	LC-MS/MS	human, plasma	oral, 5 mg, single dose, fasted	–	236 min
N[C@@H](Cc1ccc(O)c(O)c1)C(=O)O	–	human, plasma	inhalation, range and mean	–	34 to 93 min
Cc1ccc(NC(=O)c2ccc(CN3CCN(C)CC3)cc2)cc1Nc1nccc(-c2cncc(-c3oncc3C)c2)n1	–	older healthy human adults, plasma	oral, 175 mg single dose, fed, mean	–	2200 min
CN1C(=O)[C@@H](NC(=O)c2nnc(Cc3ccccc3)[nH]2)COc2ccccc21	–	human male, plasma	oral, 60 mg twice daily, day 1	–	104 min
N[C@@H](CC(=O)N1CCn2c(nnc2C(F)(F)F)C1)Cc1cc(F)c(F)cc1F	–	human, both sexes, plasma	oral, dose not given	–	690 ± 84 min
O=C(/C=C/c1cccc(S(=O)(=O)Nc2ccccc2)c1)NO[C@@H]1O[C@H](C(=O)O)[C@@H](O)[C@H](O)[C@H]1O	–	human severe liver dysfunction, plasma	intravenous, 400 mg/m^2, 30 min infusion, cycle 1 day -7, with: belinostat 400 mg/m^2 iv	–	267 min
CNC(=O)c1c(C)oc2cc(Oc3ncnc4cc(OC)c(OC)cc34)ccc12	–	human, plasma	oral, 5 mg, fasted, with: rabeprazole 40 mg	–	2180 min
COc1cc(N2CCC(N3CCN(C)CC3)CC2)ccc1Nc1ncc(Cl)c(Nc2ccccc2P(C)(C)=O)n1	–	healthy humans, plasma	oral, 90 mg, geometric mean, with: gemfibrozil	–	2030 min
O=C(NC[C@H](O)CO)c1ccncc1Nc1ccc(I)cc1F	–	human	oral, 45 mg, single dose alone	–	307 min
C=C(C)[C@@H]1CC[C@]2(NCCN3CCS(=O)(=O)CC3)CC[C@]3(C)[C@H](CC[C@@H]4[C@@]5(C)CC=C(C6=CC[C@@](CF)(C(=O)O)CC6)C(C)(C)[C@@H]5CC[C@]43C)[C@@H]12	–	healthy human volunteers	oral, 200 mg, capsule, moderate-fat meal, geometric mean	–	1570 min
CO[C@H]1C[C@@H]2CC[C@@H](C)[C@@](O)(O2)C(=O)C(=O)N2CCCC[C@H]2C(=O)O[C@H]([C@H](C)C[C@@H]2CC[C@@H](OC(=O)C(C)(CO)CO)[C@H](OC)C2)CC(=O)[C@H](C)/C=C(\C)[C@@H](O)[C@@H](OC)C(=O)[C@H](C)C[C@H](C)/C=C/C=C/C=C/1C	–	human	intravenous, 35 mg/m^2 weekly, cycle 1, median, with: valproic acid	–	702 min
O=c1[nH]c(=O)c(Cc2cccc(C(F)(F)F)c2)c([C@H]2CC[C@H](c3ccccc3)CC2)[nH]1	–	human, fasted, plasma	oral, 300 mg single dose, geometric mean	–	1270 min
NC(=O)N1CCC(CC(=O)N2CCC([C@H]3c4ncc(Br)cc4CCc4cc(Cl)cc(Br)c43)CC2)CC1	–	human, plasma	oral, 150 mg twice daily, cycle 2 day 15, multiple dose, with: gemcitabine 750 mg/m2	–	401 min
CCCC[C@H](NC(C)=O)C(=O)N[C@H]1CCC(=O)NC[C@@H](C(=O)N[C@@H](Cc2c[nH]c3ccccc23)C(N)=O)NC(=O)[C@H](CCCNC(=N)N)NC(=O)[C@@H](Cc2ccccc2)NC(=O)[C@H](Cc2c[nH]cn2)NC1=O	–	healthy human volunteers, plasma	subcutaneous, 1.0 mg once daily, day 1	–	258 min
CO[C@H]1C[C@@H]2CC[C@@H](C)[C@@](O)(O2)C(=O)C(=O)N2CCCC[C@H]2C(=O)O[C@H]([C@H](C)C[C@@H]2CC[C@@H](OCCO)[C@H](OC)C2)CC(=O)[C@H](C)/C=C(\C)[C@@H](O)[C@@H](OC)C(=O)[C@H](C)C[C@H](C)/C=C/C=C/C=C/1C	–	human, plasma	oral, 30 mg, with: sunitinib 50 mg daily	–	1030 min
CN(C)C(=O)c1cc2cnc(Nc3ccc(N4CCNCC4)cn3)nc2n1C1CCCC1	–	human, severe renal impairment, plasma	oral, 400 mg, geometric mean	–	3370 min
O=C(CCCCCCC(=O)Nc1ccccc1)NO	–	human, cycle 1 day 12, steady state, plasma	oral, 400 mg, with: bortezomib	–	114 ± 60 min
CS(=O)(=O)n1cc2c(n1)CN([C@H]1CO[C@H](c3cc(F)ccc3F)[C@@H](N)C1)C2	–	healthy male human, plasma	oral, 100 mg single, fasted, geometric mean	–	2560 min
CN(CCOc1ccc(CC2SC(=O)NC2=O)cc1)c1ccccn1 (stereo not shown)	–	human, both sexes, plasma	oral, 4 mg, day 3, mean, with: SCY-078 750 mg	–	276 min
CC(C)[C@H](N)C(=O)NCCCS(=O)(=O)O	–	human, both sexes, plasma	oral, 300 mg capsule	–	48.6 ± 7.8 min
CC(C)(Sc1ccncc1-c1ccc(C#N)c2ccccc12)C(=O)O	–	human	oral, 20 mg, with: febuxostat 40 mg	–	696 min
Cc1[nH]c2ccccc2c1CCNCc1ccc(/C=C/C(=O)NO)cc1	–	human, plasma	oral, 20 mg, fed, normal breakfast	–	942 min
O=C(c1cccnc1-c1ccncc1)N1CCC(O)(Cc2ccccc2)CC1	–	healthy human, plasma	oral, 400 mg once daily, day 14, arithmetic mean	–	220 min

Structure (SMILES)	test	test system	conditions	scale	half-life
Cc1[nH]c(/C=C2\C(=O)Nc3ccccc32)c(C)c1CCC(=O)O	–	human patients	oral, 400 mg/m^2 twice daily, after meal, dose 55	–	157 ± 26.5 min
CNC(=O)c1ccc(-c2cnc3ncc(Cc4ccc5ncccc5c4)n3n2)cc1F	–	healthy human subjects, plasma	oral, 200 mg, geometric mean, alone	–	497 min
COCCc1ccc(OCC(O)CNC(C)C)cc1 (stereo not shown)	–	healthy male humans, plasma	oral, at end of metamizole treatment	–	204 min
COCCCCn1c(C(=O)N(CC(C)C)[C@@H]2CNC[C@H](C(=O)N3CCOCC3)C2)nc2ccccc21	–	non-elderly human, plasma	oral, 160 mg once daily, day 1	–	480 min
CCOc1cc([C@@H](CS(C)(=O)=O)N2C(=O)c3cccc(NC(C)=O)c3C2=O)ccc1O[C@@H]1O[C@H](C(=O)O)[C@@H](O)[C@H](O)[C@H]1O	–	healthy human controls, plasma	oral, 30 mg apremilast, matched to severe impairment	–	1030 min
CCS(=O)(=O)N1CC(CC#N)(n2cc(-c3ncnc4[nH]ccc34)cn2)C1	–	healthy Chinese human, plasma	oral, 2 to 10 mg	–	342 to 438 min
CCCCOC(=O)N1CCN(C(=O)[C@H](CP(=O)(O)O)NC(=O)c2cc(N3CC[C@H](OC)C3)nc(-c3ccccc3)n2)CC1	–	healthy human, plasma	subcutaneous, 4 mg, with: rifampin 600 mg i.v.	geometric mean	150 min
C[C@@H]1CCC[C@H](n2cnc(-c3cc(Cl)ccc3-n3cc(Cl)nn3)cc2=O)c2cc(ccn2)-c2c(cnn2C(F)F)NC1=O	–	human	200 mg twice daily, day 14	–	708 min
Nc1ccc(-c2nc([C@H]3CCc4cc(-c5cc(Cl)ccc5-n5cnnn5)cc(=O)n43)c(F)[nH]2)c(F)n1	–	human, plasma	oral, 80 mg once daily, day 14, fed	–	1670 min
CC#CC(=O)NCCCC(=O)c1nc(-c2ccc(C(=O)Nc3ccccn3)cc2)c2c(N)nccn12	–	human, severe hepatic impairment, plasma	oral, 50 mg acalabrutinib, single, arithmetic mean	–	714 ± 246 min
O=C(CCCCCCC(=O)Nc1ccccc1)NO	–	human patients	oral, 100 to 400 mg twice daily, all dose levels	–	72 to 144 min
C=CC(=O)N1CCC([C@@H]2CCNc3c(C(N)=O)c(-c4ccc(Oc5ccccc5)cc4)nn32)CC1	–	human	oral, 480 mg, single dose, mean	–	486 min
CC[C@@H]1C(=O)N(C)c2cnc(Nc3ccc(C(=O)N[C@H]4CC[C@H](N5CCN(CC6CC6)CC5)CC4)cc3OC)nc2N1C(C)C	–	human, plasma	intravenous infusion, 300 mg over 2 h, first infusion, geometric mean	–	7740 min
Nc1nc2c(c(=O)[nH]1)N(C=O)C(CNc1ccc(C(=O)N[C@@H](CCC(=O)O)C(=O)O)cc1)CN2 (stereo partly shown)	refers to: 5-formyltetrahydrofolate	human, plasma	intravenous, 214 nmol	–	14.6 min and 19.8 min and 18.9 min and 18.3 min and 16.7 min
C[C@H](N)C(=O)N1C[C@H](CCCB(O)O)[C@](N)(C(=O)O)C1	–	human, plasma	oral, 150 mg twice daily, cycle 1 day 15	–	420 ± 102 min
CNC(=O)c1ccccc1Sc1ccc2c(/C=C/c3ccccn3)n[nH]c2c1	–	human patients, plasma	oral, steady state, without chemotherapy	–	168 min
CC(=O)c1c(C)c2cnc(Nc3ccc(N4CCNCC4)cn3)nc2n(C2CCCC2)c1=O	–	human	oral, 75 mg/m^2 repeated doses, day 21	–	948 ± 420 min
CO[C@H]1C[C@@H]2CC[C@@H](C)[C@@](O)(O2)C(=O)C(=O)N2CCCC[C@H]2C(=O)O[C@H]([C@H](C)C[C@@H]2CC[C@@H](O)[C@H](OC)C2)CC(=O)[C@H](C)/C=C(\C)[C@@H](O)[C@@H](OC)C(=O)[C@H](C)C[C@H](C)/C=C/C=C/C=C/1C	–	human, whole blood	oral, 25 mg, with: grapefruit juice	–	2400 min
COc1cc2ncnc(Nc3ccc(F)c(Cl)c3)c2cc1OCCCN1CCOCC1	–	human, plasma	oral, 250 mg, mean	–	1430 min
CCN1CCN(Cc2ccc(Nc3ncc(F)c(-c4cc(F)c5nc(C)n(C(C)C)c5c4)n3)nc2)CC1	population PK model	healthy human subjects, plasma	oral, 200 mg single dose	–	1530 min
CCOc1ccc(Cc2cc([C@]34OC[C@](CO)(O3)[C@@H](O)[C@H](O)[C@H]4O)ccc2Cl)cc1	–	human, plasma	oral, 15 mg, with: sitagliptin 100 mg	–	850 ± 273 min
COC(=O)c1ccc2c(c1)NC(=O)/C2=C(\Nc1ccc(N(C)C(=O)CN2CCN(C)CC2)cc1)c1ccccc1	–	healthy human controls matched to Child-Pugh A, plasma	oral, 100 mg single dose, geometric mean	–	2100 min
Cc1cccc(C)c1N(CC(=O)Nc1ccc(-c2ncon2)cc1)C(=O)C1CCS(=O)(=O)CC1	–	human male, plasma	oral, 1200 mg single dose, geometric mean, alone	–	432 min
CS(=O)(=O)CCNCc1ccc(-c2ccc3ncnc(Nc4ccc(OCc5cccc(F)c5)c(Cl)c4)c3c2)o1	–	human, plasma	oral, single dose	–	618 min
O=C(/C=C/c1cccc(S(=O)(=O)Nc2ccccc2)c1)NO	–	human severe liver dysfunction, plasma	intravenous, 400 mg/m^2, 30 min infusion, cycle 1 day -7	–	157 min
O=CC[C@@H](O)[C@H](O)[C@H](O)CO	HPLC-fluorescence	human patients, plasma	oral, 30 mg/kg/day, cycle 1	–	270 ± 36 min

A few entries again:
Structure (SMILES)	test	test system	conditions	scale	half-life
C=C(C)[C@@H]1CC[C@]2(NCCN3CCS(=O)(=O)CC3)CC[C@]3(C)[C@H](CC[C@@H]4[C@@]5(C)CC=C(C6=CC[C@@](CF)(C(=O)O)CC6)C(C)(C)[C@@H]5CC[C@]43C)[C@@H]12	–	healthy human volunteers	oral, 200 mg, capsule, moderate-fat meal, geometric mean	–	1570 min
CO[C@H]1C[C@@H]2CC[C@@H](C)[C@@](O)(O2)C(=O)C(=O)N2CCCC[C@H]2C(=O)O[C@H]([C@H](C)C[C@@H]2CC[C@@H](OC(=O)C(C)(CO)CO)[C@H](OC)C2)CC(=O)[C@H](C)/C=C(\C)[C@@H](O)[C@@H](OC)C(=O)[C@H](C)C[C@H](C)/C=C/C=C/C=C/1C	–	human	intravenous, 35 mg/m^2 weekly, cycle 1, median, with: valproic acid	–	702 min
O=c1[nH]c(=O)c(Cc2cccc(C(F)(F)F)c2)c([C@H]2CC[C@H](c3ccccc3)CC2)[nH]1	–	human, fasted, plasma	oral, 300 mg single dose, geometric mean	–	1270 min
NC(=O)N1CCC(CC(=O)N2CCC([C@H]3c4ncc(Br)cc4CCc4cc(Cl)cc(Br)c43)CC2)CC1	–	human, plasma	oral, 150 mg twice daily, cycle 2 day 15, multiple dose, with: gemcitabine 750 mg/m2	–	401 min
CCCC[C@H](NC(C)=O)C(=O)N[C@H]1CCC(=O)NC[C@@H](C(=O)N[C@@H](Cc2c[nH]c3ccccc23)C(N)=O)NC(=O)[C@H](CCCNC(=N)N)NC(=O)[C@@H](Cc2ccccc2)NC(=O)[C@H](Cc2c[nH]cn2)NC1=O	–	healthy human volunteers, plasma	subcutaneous, 1.0 mg once daily, day 1	–	258 min
